Experimental data pooled from the literature.
Protocols differ between the studies behind these lines. ± gives the spread as reported.
ALB: Albumin (ALB, Bos taurus, UniProt P02769)
Sequence of UniProt P02769 (whole entry, looked up): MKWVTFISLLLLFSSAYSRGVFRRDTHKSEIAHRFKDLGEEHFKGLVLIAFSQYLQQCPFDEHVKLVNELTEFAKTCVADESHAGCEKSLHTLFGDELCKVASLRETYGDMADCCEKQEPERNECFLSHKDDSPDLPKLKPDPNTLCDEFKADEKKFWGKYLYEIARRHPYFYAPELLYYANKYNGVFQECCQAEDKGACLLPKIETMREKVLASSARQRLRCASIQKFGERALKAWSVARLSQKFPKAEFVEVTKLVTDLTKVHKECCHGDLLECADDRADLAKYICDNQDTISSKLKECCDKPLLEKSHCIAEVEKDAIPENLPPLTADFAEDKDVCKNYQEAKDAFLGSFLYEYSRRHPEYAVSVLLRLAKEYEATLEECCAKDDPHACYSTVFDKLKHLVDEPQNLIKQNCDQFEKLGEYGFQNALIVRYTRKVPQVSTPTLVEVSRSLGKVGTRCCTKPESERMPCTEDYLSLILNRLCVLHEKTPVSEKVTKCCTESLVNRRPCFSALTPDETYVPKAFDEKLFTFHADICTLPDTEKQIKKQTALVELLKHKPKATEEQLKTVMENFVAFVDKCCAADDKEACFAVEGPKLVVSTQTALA
Beta-lactamase CTX-M-14: Beta-lactamase CTX-M-14 (Escherichia coli, UniProt Q9L5C7)
PKM: Pyruvate kinase PKM (PKM, Homo sapiens, UniProt P14618)
Sequence of UniProt P14618 (whole entry, looked up): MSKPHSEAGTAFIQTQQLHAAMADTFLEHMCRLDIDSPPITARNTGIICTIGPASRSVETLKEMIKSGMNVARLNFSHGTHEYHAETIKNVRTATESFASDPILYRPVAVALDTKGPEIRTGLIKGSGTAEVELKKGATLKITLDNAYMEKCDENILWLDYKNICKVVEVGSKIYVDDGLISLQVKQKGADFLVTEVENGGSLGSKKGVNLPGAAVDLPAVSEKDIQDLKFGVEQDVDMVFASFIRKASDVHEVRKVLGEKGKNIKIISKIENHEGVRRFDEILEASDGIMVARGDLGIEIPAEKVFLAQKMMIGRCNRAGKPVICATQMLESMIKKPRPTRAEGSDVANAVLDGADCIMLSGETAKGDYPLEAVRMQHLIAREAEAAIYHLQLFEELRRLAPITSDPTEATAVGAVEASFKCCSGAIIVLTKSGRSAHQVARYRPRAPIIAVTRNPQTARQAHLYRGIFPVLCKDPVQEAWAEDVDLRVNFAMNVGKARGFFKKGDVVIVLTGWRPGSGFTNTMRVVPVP
Sequence of UniProt O43189 (whole entry, unmodified, looked up): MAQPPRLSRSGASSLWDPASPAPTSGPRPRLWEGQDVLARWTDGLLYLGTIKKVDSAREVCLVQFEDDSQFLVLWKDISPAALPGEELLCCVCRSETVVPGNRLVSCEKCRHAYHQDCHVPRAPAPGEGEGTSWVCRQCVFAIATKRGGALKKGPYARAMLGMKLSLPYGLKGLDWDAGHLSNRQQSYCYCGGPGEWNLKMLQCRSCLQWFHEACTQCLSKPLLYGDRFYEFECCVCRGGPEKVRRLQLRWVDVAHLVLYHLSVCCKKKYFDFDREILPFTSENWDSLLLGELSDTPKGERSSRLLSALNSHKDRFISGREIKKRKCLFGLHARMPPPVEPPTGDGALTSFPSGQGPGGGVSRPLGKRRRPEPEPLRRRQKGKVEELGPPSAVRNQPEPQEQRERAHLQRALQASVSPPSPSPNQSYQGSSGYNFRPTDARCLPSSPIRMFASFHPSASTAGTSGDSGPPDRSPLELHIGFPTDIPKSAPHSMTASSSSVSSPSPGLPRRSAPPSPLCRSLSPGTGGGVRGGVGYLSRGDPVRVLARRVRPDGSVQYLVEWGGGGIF
Sequence of UniProt P18507 (whole entry, looked up): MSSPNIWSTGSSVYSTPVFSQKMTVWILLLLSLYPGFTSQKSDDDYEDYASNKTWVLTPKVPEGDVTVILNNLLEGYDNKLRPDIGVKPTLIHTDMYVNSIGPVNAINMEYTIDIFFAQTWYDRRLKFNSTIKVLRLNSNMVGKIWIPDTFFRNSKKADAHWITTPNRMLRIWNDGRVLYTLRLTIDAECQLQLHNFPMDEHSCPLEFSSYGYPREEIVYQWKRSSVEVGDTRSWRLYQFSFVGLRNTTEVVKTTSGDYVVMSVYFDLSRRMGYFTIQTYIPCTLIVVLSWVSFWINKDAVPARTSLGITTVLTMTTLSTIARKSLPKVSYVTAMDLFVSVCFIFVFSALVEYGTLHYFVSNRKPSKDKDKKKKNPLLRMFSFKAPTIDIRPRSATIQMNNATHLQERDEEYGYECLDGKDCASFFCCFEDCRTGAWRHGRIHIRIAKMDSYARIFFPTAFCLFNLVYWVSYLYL
Sequence of UniProt P10636 (whole entry, looked up): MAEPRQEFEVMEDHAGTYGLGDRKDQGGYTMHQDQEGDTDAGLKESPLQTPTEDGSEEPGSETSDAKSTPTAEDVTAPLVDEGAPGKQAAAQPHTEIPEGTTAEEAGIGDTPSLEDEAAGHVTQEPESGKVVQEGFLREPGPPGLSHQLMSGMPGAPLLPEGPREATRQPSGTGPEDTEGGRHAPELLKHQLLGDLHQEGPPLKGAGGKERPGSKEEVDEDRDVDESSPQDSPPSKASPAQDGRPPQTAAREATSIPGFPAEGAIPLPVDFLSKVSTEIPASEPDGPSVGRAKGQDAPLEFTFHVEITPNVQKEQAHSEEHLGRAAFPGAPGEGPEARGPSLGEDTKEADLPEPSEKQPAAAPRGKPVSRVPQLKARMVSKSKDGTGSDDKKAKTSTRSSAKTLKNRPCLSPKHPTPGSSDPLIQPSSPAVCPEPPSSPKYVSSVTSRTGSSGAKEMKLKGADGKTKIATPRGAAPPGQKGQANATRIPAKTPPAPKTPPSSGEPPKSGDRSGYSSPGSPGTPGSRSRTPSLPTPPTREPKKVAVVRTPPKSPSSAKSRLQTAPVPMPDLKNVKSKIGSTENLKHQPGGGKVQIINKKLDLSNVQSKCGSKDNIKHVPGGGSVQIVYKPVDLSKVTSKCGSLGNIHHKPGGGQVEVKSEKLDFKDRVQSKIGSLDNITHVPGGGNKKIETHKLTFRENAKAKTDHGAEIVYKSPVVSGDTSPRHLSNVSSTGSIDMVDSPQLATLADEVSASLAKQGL
Sequence of UniProt Q13153 (whole entry, looked up): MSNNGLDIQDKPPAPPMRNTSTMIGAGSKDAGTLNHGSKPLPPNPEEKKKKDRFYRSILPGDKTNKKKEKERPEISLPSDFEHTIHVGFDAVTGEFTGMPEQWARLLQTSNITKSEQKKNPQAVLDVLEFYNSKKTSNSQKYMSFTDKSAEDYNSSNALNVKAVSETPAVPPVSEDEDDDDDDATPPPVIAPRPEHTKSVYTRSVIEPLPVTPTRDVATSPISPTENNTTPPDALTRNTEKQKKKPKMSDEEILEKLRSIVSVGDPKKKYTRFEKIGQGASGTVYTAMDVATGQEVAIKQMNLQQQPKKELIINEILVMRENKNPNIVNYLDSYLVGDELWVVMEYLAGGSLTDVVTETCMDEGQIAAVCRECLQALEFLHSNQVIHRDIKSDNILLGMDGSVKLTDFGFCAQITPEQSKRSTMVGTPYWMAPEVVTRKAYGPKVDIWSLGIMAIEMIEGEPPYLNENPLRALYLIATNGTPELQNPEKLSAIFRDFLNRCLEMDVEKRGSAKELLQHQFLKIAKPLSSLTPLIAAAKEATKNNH
Sequence of UniProt Q9EPX4 (whole entry, looked up): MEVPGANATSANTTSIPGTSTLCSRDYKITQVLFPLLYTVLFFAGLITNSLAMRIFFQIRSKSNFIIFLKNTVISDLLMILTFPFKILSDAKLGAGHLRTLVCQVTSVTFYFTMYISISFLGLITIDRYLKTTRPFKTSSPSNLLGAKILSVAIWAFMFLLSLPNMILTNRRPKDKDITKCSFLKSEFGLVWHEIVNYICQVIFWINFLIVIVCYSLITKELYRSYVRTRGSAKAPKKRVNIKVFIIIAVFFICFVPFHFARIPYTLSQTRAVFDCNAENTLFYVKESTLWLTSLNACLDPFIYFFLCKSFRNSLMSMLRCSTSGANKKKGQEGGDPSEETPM
Sequence of UniProt P52306 (whole entry, looked up): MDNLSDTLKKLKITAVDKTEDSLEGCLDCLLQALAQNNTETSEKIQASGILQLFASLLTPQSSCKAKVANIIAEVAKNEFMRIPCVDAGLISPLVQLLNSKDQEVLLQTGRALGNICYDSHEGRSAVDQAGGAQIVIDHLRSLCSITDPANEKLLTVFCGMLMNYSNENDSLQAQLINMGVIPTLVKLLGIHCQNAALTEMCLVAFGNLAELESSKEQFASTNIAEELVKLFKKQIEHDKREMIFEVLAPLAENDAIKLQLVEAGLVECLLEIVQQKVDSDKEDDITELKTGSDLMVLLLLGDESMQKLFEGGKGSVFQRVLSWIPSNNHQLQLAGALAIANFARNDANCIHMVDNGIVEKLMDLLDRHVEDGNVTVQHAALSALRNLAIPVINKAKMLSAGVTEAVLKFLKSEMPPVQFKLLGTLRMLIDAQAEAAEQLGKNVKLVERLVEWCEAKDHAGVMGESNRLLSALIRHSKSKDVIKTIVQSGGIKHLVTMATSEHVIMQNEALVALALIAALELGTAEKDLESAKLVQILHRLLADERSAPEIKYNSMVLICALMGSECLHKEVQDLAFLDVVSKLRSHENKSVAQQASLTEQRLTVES
Sequence of UniProt P28472 (whole entry, looked up): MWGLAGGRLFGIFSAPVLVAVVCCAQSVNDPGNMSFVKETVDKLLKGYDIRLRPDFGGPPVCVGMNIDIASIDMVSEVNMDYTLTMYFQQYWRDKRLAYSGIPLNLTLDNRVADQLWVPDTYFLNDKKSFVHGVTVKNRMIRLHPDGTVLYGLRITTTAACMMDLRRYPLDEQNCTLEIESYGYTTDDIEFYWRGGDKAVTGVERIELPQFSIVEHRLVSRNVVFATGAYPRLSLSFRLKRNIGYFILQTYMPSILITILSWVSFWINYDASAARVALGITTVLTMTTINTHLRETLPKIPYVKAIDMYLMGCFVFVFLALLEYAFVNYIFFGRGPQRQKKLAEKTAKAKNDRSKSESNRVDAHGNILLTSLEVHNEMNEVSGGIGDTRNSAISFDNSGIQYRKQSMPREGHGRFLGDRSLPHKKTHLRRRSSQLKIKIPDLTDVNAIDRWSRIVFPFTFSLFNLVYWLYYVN

SMILES | target | test | test system | conditions | Kd [µM]
CCCCCCCCCCCC(=O)Nc1ccccc1SSc1ccccc1NC(=O)CCCCCCCCCCC | ALB | binding, fluorescence quenching, no site marker |  | pH 7.4, 298 K | 0.000943
CC(=O)NCCN(CCC(=O)NCCN(CCC(=O)NCCN(CCC(=O)NCCC(N)=O)C(=O)[C@@H](N)Cc1ccccc1)C(=O)[C@@H](N)CCCNC(=N)N)C(=O)[C@@H](N)Cc1ccccc1 | HIV-1 TAR RNA (18-44) | fluorescence |  | 25 °C, with: 100-fold excess 15-mer duplex DNA | 0.6 ± 0.06
CCCCCCCCCCCCCC(=O)Nc1ccccc1SSc1ccccc1NC(=O)CCCCCCCCCCCCC | ALB | binding, fluorescence quenching |  | pH 7.4, 313 K | 9.35
CC(C)C[C@H](NC(=O)[C@@H]1CCCN1C(=O)[C@H](CCCCN)NC(=O)[C@H](CCCCN(CCc1ccccc1)C(C)C)NC(=O)[C@@H](NC(=O)CNC(=O)CN)C(C)C)C(=O)N[C@@H](CCCNC(=N)N)C(N)=O | PHD finger protein 1, Tudor domain W41A (Homo sapiens, UniProt O43189, W41A) | binding, isothermal titration calorimetry |  | Tudor domain | 4.9 ± 0.6
N#Cc1cc(C(=O)OCC[18F])c(C(F)(F)F)nc1N1CCC(C(=O)NS(=O)(=O)c2ccc(Cl)s2)CC1 | P2Y purinoceptor 12 (P2ry12, Rattus norvegicus, UniProt Q9EPX4) | binding in cells, radioligand |  |  | 0.00655
CC(C)[C@H](NC(=O)CNC(=O)CNC(=O)[C@@H](NC(=O)[C@H](C)NC(=O)[C@@H]1CCCN1C(=O)[C@H](C)NC(=O)[C@@H](N)CO)[C@@H](C)O)C(=O)N[C@@H](CCCCN(C)C)C(=O)N[C@@H](CCCCN)C(=O)N1CCC[C@H]1C(=O)N[C@@H](Cc1c[nH]cn1)C(=O)N[C@@H](CCCNC(=N)N)C(=O)N[C@@H](Cc1ccc(O)cc1)C(=O)N[C@@H](CCCNC(=N)N)C(=O)N1CCC[C@H]1C(=O)O | PHD finger protein 1, Tudor domain (Homo sapiens, UniProt O43189) | binding, isothermal titration calorimetry |  |  | 19.3 ± 2.5
O=C(Nc1cccc(-c2nn[nH]n2)c1)c1cc(-c2ncccn2)cc(C(F)(F)F)c1 | Beta-lactamase CTX-M-14 | surface plasmon resonance |  | 25 °C | 4.07 ± 0.04
C[n+]1ccc(/C=N/NC(=O)c2cncc(C(=O)N/N=C/c3cc[n+](C)c4ccccc34)n2)c2ccccc21 | G-quadruplex DNA 22CTA (human) | binding, fluorimetric titration | 100 mM KCl buffer | pH 7.2, with: 5'-Cy5-labelled G4 2 nM | 0.0191 ± 0.0026
N=c1ccc(-c2ccc(OCc3ccc(CCCNC(=O)c4ccc(-c5c6cc(F)c(=O)cc-6oc6cc(O)c(F)cc56)c(C(=O)O)c4)cc3)cc2)nn1CCCC(=O)O | GABA-A receptor; alpha-1/beta-3/gamma-2 (Homo sapiens, UniProt P14867+P18507+P28472) | binding, confocal imaging | HEK293T cells, live |  | 0.0549
NS(=O)(=O)c1cc(C(=O)NCCCC(=O)O)c(NC2CCCCC2)cc1Cl | CA12 (Homo sapiens, UniProt O43570) | binding, ITC |  |  | ≤ 0.012
O=C(Nc1cccc(-c2nn[nH]n2)c1)c1cc(-c2nn[nH]n2)cc(C(F)(F)F)c1 | Beta-lactamase CTX-M-14 | surface plasmon resonance |  | 25 °C | 11.9 ± 0.1
C#CCN1c2ccccc2C=Cc2ccccc21 | PKM | binding, SPR |  |  | 40
Cc1ccc2oc(=O)c(-c3nc4cnccc4[nH]3)cc2c1 | Bifunctional arginine demethylase and lysyl-hydroxylase JMJD6 (Homo sapiens, UniProt Q6NYC1) | binding, ITC |  |  | 3.83
OC(Cc1cc(-c2ccc(C(O)C(F)(F)F)s2)sc1-c1ccc(-c2sc(-c3ccc(C(O)C(F)(F)F)s3)cc2CC(O)C(F)(F)F)s1)C(F)(F)F (stereo not shown) | Microtubule-associated protein tau, aggregated (MAPT, Homo sapiens, UniProt P10636) | small tau aggregate binding |  | 96 h aggregation | 0.038
CC(=O)O[C@H]1C=C([C@H](C)[C@H]2CC(C)=C(C)C(=O)O2)[C@@]2(C)CC[C@H]3[C@@H](C[C@H]4O[C@]45[C@@H](O)C=CC(=O)[C@]35C)[C@]12O | Peroxiredoxin-6 (PRDX6, Homo sapiens, UniProt P30041) | binding, BLI |  |  | 7.51
CCCCCCCC(=O)N[C@@H](CCN)C(=O)N[C@H](C(=O)N[C@@H](CCCCN)C(=O)N[C@H]1CCNC(=O)[C@H]([C@@H](C)O)NC(=O)[C@H](CCN)NC(=O)[C@H](CCN)NC(=O)[C@H](CC(C)C)NC(=O)[C@@H](Cc2ccccc2)NC(=O)[C@H](CCN)NC1=O)[C@@H](C)O | anti-polymyxin B mouse IgM mAb | SPR |  | 25 °C | 13.1

SMILES | target | test | test system | conditions | Kd [µM]
O=c1c(OS(=O)(=O)O)c(-c2ccc(OS(=O)(=O)O)c(OS(=O)(=O)O)c2)oc2cc(OS(=O)(=O)O)cc(OCCCOc3cc(OS(=O)(=O)O)cc4oc(-c5ccc(OS(=O)(=O)O)c(OS(=O)(=O)O)c5)c(OS(=O)(=O)O)c(=O)c34)c12 | Alpha-2-antiplasmin (SERPINF2, Homo sapiens, UniProt P08697) | microscale thermophoresis |  |  | 11.9
CC(=O)NCCN(CCC(=O)NCCN(CCC(=O)NCCN(CCC(=O)NCCC(N)=O)C(=O)[C@@H](N)CCCNC(=N)N)C(=O)[C@@H](N)CCCNC(=N)N)C(=O)[C@@H](N)Cc1ccccc1 | HIV-1 TAR RNA (18-44) | fluorescence |  | 25 °C, with: 100-fold excess 15-mer duplex DNA | 0.6 ± 0.15
Cc1cccc(Cn2ncc3c4cc(F)c(CN(C)C)cc4n(C)c3c2=O)n1 | PKM | binding, ITC |  | pH 7.5 | 1.38
CCCCCCCC(=O)N[C@@H](CCN)C(=O)N[C@H](C(=O)N[C@@H](CCN)C(=O)N[C@H]1CCNC(=O)[C@H]([C@@H](C)O)NC(=O)[C@H](CCN)NC(=O)[C@H](CCN)NC(=O)[C@H](CC(C)C)NC(=O)[C@@H](Cc2ccccc2)NC(=O)[C@H](CC(N)=O)NC1=O)[C@@H](C)O | anti-polymyxin B mouse IgM mAb | SPR |  | 25 °C | > 25
CC(=O)NCCN(CC(=O)NCCN(CC(=O)NCCN(CC(=O)NCCC(N)=O)C(=O)C[C@@H](N)Cc1ccccc1)C(=O)C[C@@H](N)CCCNC(=N)N)C(=O)C[C@@H](N)Cc1ccccc1 | HIV-1 TAR RNA (18-44) | fluorescence |  | 25 °C, with: 100-fold excess 15-mer duplex DNA | 0.82 ± 0.16
COC(=O)c1cc(O)c2ccccc2c1O | Serine/threonine-protein kinase PAK 1, PBD (PAK1, Homo sapiens, UniProt Q13153) | SPR |  | 25 °C | < 7
CCCCCCCC(=O)N[C@@H](CCN)C(=O)N[C@H](C(=O)N[C@@H](CCN)C(=O)N[C@H]1CCNC(=O)[C@H]([C@@H](C)O)NC(=O)[C@H](CCN)NC(=O)[C@H]([C@@H](C)O)NC(=O)[C@H](CC(C)C)NC(=O)[C@@H](Cc2ccccc2)NC(=O)[C@H](CCN)NC1=O)[C@@H](C)O | anti-polymyxin B mouse IgM mAb | SPR |  | 25 °C | > 25
O=C(Nc1cccc(-c2nn[nH]n2)c1)c1cc(-c2ccsc2)cc(C(F)(F)F)c1 | Beta-lactamase CTX-M-14 | surface plasmon resonance |  | 25 °C | 51 ± 1.2
CC(=O)NCCN(CCC(=O)NCCN(CCC(=O)NCCN(CCC(=O)NCCC(N)=O)C(=O)[C@@H](N)Cc1ccccc1)C(=O)[C@@H](N)CCCNC(=N)N)C(=O)[C@@H](N)CCCNC(=N)N | HIV-1 TAR RNA (18-44) | fluorescence |  | 25 °C, with: 100-fold excess 15-mer duplex DNA | 0.6 ± 0.1
Nc1ncnc2c1ncn2[C@@H]1O[C@H](CO)[C@@H](O[C@H]2O[C@H](CO)[C@@H](OP(=O)(O)O)[C@H](OP(=O)(O)O)[C@H]2O)[C@H]1O | Inositol 1,4,5-trisphosphate-gated calcium channel ITPR1, IP3-binding core (Itpr1, Rattus norvegicus, UniProt P29994) | binding, 3H-IP3 competition |  | IP3-binding core IBC | 0.00882
CC(C)C[C@H](NC(=O)[C@@H](NC(=O)[C@H](CC(C)C)NC(=O)[C@H](CS)NC(=O)CNC(=O)[C@H](CO)NC(=O)[C@H](CCCCN)NC(=O)[C@H](CCCCN)NC(=O)[C@H](CCCCN)NC(=O)CNC(=O)[C@H](CCCNC(=N)N)NC(=O)[C@H](CCCNC(=N)N)NC(=O)[C@H](C)NC(=O)c1ccc2c(c1)C(=O)OC21c2ccc(O)cc2Oc2cc(O)ccc21)C(C)C)C(=O)O | Rap1 GTPase-GDP dissociation stimulator 1, SmgGDS-607 isoform (RAP1GDS1, Homo sapiens, UniProt P52306) | binding, fluorescence anisotropy |  |  | 1.9 ± 0.3
CCCCCCCCCCCCCCCC(=O)Nc1ccccc1SSc1ccccc1NC(=O)CCCCCCCCCCCCCCC | ALB | binding, fluorescence quenching |  | pH 7.4, 298 K, with: warfarin (site I marker) | 261
CC(C)C[C@@H]1NC(=O)[C@@H](Cc2ccccc2)NC(=O)[C@H](CCN)NC(=O)[C@@H](NC(=O)[C@H](CCN)NC(=O)[C@@H](NC(=O)[C@H](CCN)NC(=O)CNS(=O)(=O)c2cccc3c(N(C)C)cccc23)[C@@H](C)O)CCNC(=O)[C@H]([C@@H](C)O)NC(=O)[C@H](CCN)NC(=O)[C@H](CCN)NC1=O | anti-polymyxin B mouse IgM mAb | SPR |  | 25 °C | 5.5
CC(=O)NCCN(CC(=O)NCCN(CC(=O)NCCN(CC(=O)NCCC(N)=O)C(=O)C[C@@H](N)CCCNC(=N)N)C(=O)C[C@@H](N)CCCCN)C(=O)C[C@@H](N)Cc1ccccc1 | HIV-1 TAR RNA (18-44) | fluorescence |  | 25 °C, with: 100-fold excess natural tRNA | 0.7 ± 0.15
CC1(C)CC(=O)C2=C(C1)Oc1ncnc(Nc3ccc(F)cc3)c1C2c1ccccc1F (stereo not shown) | ALB | absorption titration |  | pH 7.2, 25 °C | 3.04

Excerpt of the above:
SMILES | target | test | test system | conditions | Kd [µM]
COC(=O)c1cc(O)c2ccccc2c1O | Serine/threonine-protein kinase PAK 1, PBD (PAK1, Homo sapiens, UniProt Q13153) | SPR |  | 25 °C | < 7
CCCCCCCC(=O)N[C@@H](CCN)C(=O)N[C@H](C(=O)N[C@@H](CCN)C(=O)N[C@H]1CCNC(=O)[C@H]([C@@H](C)O)NC(=O)[C@H](CCN)NC(=O)[C@H]([C@@H](C)O)NC(=O)[C@H](CC(C)C)NC(=O)[C@@H](Cc2ccccc2)NC(=O)[C@H](CCN)NC1=O)[C@@H](C)O | anti-polymyxin B mouse IgM mAb | SPR |  | 25 °C | > 25
O=C(Nc1cccc(-c2nn[nH]n2)c1)c1cc(-c2ccsc2)cc(C(F)(F)F)c1 | Beta-lactamase CTX-M-14 | surface plasmon resonance |  | 25 °C | 51 ± 1.2
CC(=O)NCCN(CCC(=O)NCCN(CCC(=O)NCCN(CCC(=O)NCCC(N)=O)C(=O)[C@@H](N)Cc1ccccc1)C(=O)[C@@H](N)CCCNC(=N)N)C(=O)[C@@H](N)CCCNC(=N)N | HIV-1 TAR RNA (18-44) | fluorescence |  | 25 °C, with: 100-fold excess 15-mer duplex DNA | 0.6 ± 0.1
Nc1ncnc2c1ncn2[C@@H]1O[C@H](CO)[C@@H](O[C@H]2O[C@H](CO)[C@@H](OP(=O)(O)O)[C@H](OP(=O)(O)O)[C@H]2O)[C@H]1O | Inositol 1,4,5-trisphosphate-gated calcium channel ITPR1, IP3-binding core (Itpr1, Rattus norvegicus, UniProt P29994) | binding, 3H-IP3 competition |  | IP3-binding core IBC | 0.00882
